Measured values pooled from the literature.
Each numbered part is a random draw from the data of one study; scales do not carry over between parts. Substitutions count along the parent as printed.

Sample 1
Target: RING finger protein unkempt homolog, zinc fingers 1-6, SBP tag (UNK, Homo sapiens, UniProt Q9C0B0, residues 30-357)
Sequence of UniProt Q9C0B0 (30-357, looked up): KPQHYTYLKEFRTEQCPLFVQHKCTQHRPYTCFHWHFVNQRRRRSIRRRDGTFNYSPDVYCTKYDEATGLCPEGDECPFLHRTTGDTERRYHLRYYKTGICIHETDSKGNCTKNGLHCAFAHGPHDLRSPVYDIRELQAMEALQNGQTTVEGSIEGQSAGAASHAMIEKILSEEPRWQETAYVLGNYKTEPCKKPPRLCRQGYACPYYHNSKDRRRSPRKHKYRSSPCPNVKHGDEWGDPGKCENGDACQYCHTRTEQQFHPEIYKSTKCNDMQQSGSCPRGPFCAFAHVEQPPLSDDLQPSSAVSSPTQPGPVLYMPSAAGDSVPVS
Method: RNA Bind-n-Seq
Molecule type: RNA
Sample: in vitro
Tested at: 100 nM
Notes: RNA with constant flanks, vertebrate orthologous sites, ends assumed
Reference: input RNA pool
Reading: higher = stronger binding
All sequences stand within: GGGAGUUCUACAGUCCGACGAUC … CAACAGAGGAUUGAGCAUCA
Strand	bound/input enrichment
CCUUAAUAUAGGGUAGUGUAUGUUUCAAAAAGGAAAAUCUGCAUAGUUUUGUUUGUCAUAUAGUAUUUUGGAAUUUGUAUAAUGAGGAUGUUUAGAAGCCAUAUGAAUGGCUUUUUUUAA	0.668 ratio
UCCUCAACUUGUUCUAGCUUGUGAUCCUUCAAAAUUGGGUCAGGCAUUAGUGCUAGGUACUAGAAAUUUUGCAUUUCUCUAUUGCCAUUGAUCAGAGAGACAGACAUUAAAACAGGAAUA	0.502 ratio
GAUUUGGGCCUUGGAACAGAACCAGGAGUUAGCAACAGUAAAAGUAAGCUUGUAAAAUUAUGGCCACAUGCAGCUGCACAACAUCAGUGCCAUCACUAACAACUGUAUUAGAGUAUUUAU	1.42 ratio
CAGCUGACUCACUUAUUGGGAGAGCUGCACAUAUAGCUGUUCUUGAUUCAGAAAUAUUUUUAGAGAAAUUCUUUCUGGUUGCUGCCCUCAAAUAUUUCCAGUAGUAUAAAACAUUGUUAA	1.07 ratio
UUGGGACCAGCUCUCCAAAUAAGAACACUAUUAAAAAAAAUAAGCAAAAUGAUAUUUGUAUAGAAAAAACAGAAGUUAAAUCAUGUAAAGUAGCUGCCAACAUAGCAAGCCCUAAAGAUU	1.13 ratio
CCAAAAGGCCAAAUUCCCUCCUCCCUUCUACUGCUUCUACCAACUGGAAGCACAGAAAACUAGAAUUUCAUUUAUUUUGUUUUUAAAAUACCUAUGUUGAUUUCUUGUAACAUCCAAUAG	1 ratio
UCUCUCACUUAGCUGUGUCCAAAAUUGCUAUGAGGGUUGGAAACGUUGAUUAGUUUCAUGUAGAACUACACUGGCAGGUGCUCAAUUACCAUCAUAGCAAGGUCAAAUACCAUCACAGUA	1.22 ratio
CCCCAGCACGCUGAUAAAGACCGUGGAUUGGCUGCUUGUGUUUUCCUUAUUCUUUUUAAUUAGCUUUAUUAUGUAUGCUACCAUCCGGACUGAGAGCAUUCGCUGGCUGAUUCCAGGACA	1.31 ratio

Sample 2
Target: Interferon regulatory factor 7, full length, phosphomimetic (IRF7, Homo sapiens, UniProt Q92985, residues 1-503, S471D/S472D/S475D/S476D/S477D/S483D/S484D/S487D)
Sequence of UniProt Q92985 (whole entry, unmodified, looked up): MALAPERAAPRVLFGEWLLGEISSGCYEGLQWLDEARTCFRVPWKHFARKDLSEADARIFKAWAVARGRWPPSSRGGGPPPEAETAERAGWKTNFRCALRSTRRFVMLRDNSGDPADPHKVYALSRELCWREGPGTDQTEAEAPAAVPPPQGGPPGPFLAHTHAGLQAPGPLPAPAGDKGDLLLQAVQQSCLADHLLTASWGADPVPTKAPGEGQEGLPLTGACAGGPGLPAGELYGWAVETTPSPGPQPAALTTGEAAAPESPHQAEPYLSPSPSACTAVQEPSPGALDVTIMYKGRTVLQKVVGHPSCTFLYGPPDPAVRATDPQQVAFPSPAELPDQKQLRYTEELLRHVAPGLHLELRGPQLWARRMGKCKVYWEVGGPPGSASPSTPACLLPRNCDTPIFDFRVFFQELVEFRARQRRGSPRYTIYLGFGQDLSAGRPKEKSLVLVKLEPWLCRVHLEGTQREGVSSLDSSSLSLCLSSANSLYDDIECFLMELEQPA
Method: protein-binding microarray
Molecule type: double-stranded DNA, one strand shown
Sample: in vitro
Tested at: 2200 nM top
Notes: 60-bp whole probe
Added: salmon DNA 0.4 mg/ml
Reference: random background probes
Reading: higher = stronger binding
All sequences stand within: GCCTAGCAC … GTCTTGATTCGCTTGACGCTGCTG
Strand	fitted relative affinity
AACGGTCTCGGACTGGGGACGTGCTAG	-0.405 z-score
GACGCTCTCCTTTTCCTGACGTGCTAG	2.19 z-score
GACGATATCAGCATCGAGACGTGCTAG	0.359 z-score
TCAGATTTCAGTTTCTCACTGTGCTAG	3.15 z-score
GACGATTCCAGACTGGAGACGTGCTAG	0.173 z-score
GACGGTTTCGGTTTTCGGGACGTGCTA	12.4 z-score
ATAGGTTTCGACACTGGGTTAGTGCTA	2.47 z-score
GGCGATCTCAGTATCGAGACGTGCTAG	-0.49 z-score
GACGGTATCCTACTGTTGACGTGCTAG	0.559 z-score
TCATGTTTCCTCTTTCAACTGTGCTAG	3.35 z-score
TTAGATTTCGGGACTGGATCAGTGCTA	1.13 z-score
GACGTTTTCAGTATCGAGACGTGCTAG	2.37 z-score
TTAGATATCAGTACCGATTAGTGCTAG	0.178 z-score
GAAGGTTTCCTTTTCCTGACGTGCTAG	4.73 z-score
GACGGTTTCGATTTCGGGACGTGCTAG	11.5 z-score
ATTTCTTTCTAATTCAAAGTGTGCTAG	2.41 z-score
GATGGACTGGGACTGGGGACGTGCTAG	-0.601 z-score

Sample 3
Target: Prothrombin, mature alpha-thrombin (F2, Homo sapiens, UniProt P00734)
Method: aptamer microarray, sandwich
Molecule type: DNA with 2'F-ANA
Sample: in vitro
Tested at: 200 nM
Notes: whole 15-mer aptamer, many near background
Added: Cy3 exosite-II aptamer, 400 nM
Reading: higher = stronger binding
Strand: GGTTGGTGTGGTTGG
Modification	mean fluorescence intensity [a.u.]
2'F-ANA at 2 3 6 8 9 15	801
2'F-ANA at 1 4 5 6 8 12 14	45.6
2'F-ANA at 2 3 4 6 8 10 13 14	180
2'F-ANA at 1 2 5 8 13	48
2'F-ANA at 3 4 5	104
2'F-ANA at 1 3 4 9 11 13 14 15	58.2
2'F-ANA at 1 2 3 4 6 8 10 11 13 14 15	50.4
2'F-ANA at 1 2 5 7 8 11 12	104
2'F-ANA at 2 6 7 10 13 14 15	84.3
2'F-ANA at 2 3 8 10 11 13 14 15	234
2'F-ANA at 3 5 9 12 13 14	94.2
2'F-ANA at 1 2 3 8 11 12 13 14	90.6
2'F-ANA at 1 3 4 6 8 11 14	65.2
2'F-ANA at 1 2 3 4 5 8 9 10	49.4
2'F-ANA at 1 5 8 9 14 15	43.3
2'F-ANA at 1 4 6 8 11 12	228

Sample 4
Target: CCND3, cyclin fold, Cln2 fusion (human)
Method: yeast growth competition, sequencing
Sample: yeast
Notes: weak parent motif
Reference: not given
Reading: higher = stronger binding
Parent: PKMYT1 docking peptide (human); SFEPRNLLSLFED
Change	normalised enrichment score
L7P	0.00188
S9E	0.0949
L10Y	0.083
P4W	0.0889
L10G	0.135
S9L	0.0919
L8S	0.0752
E12Q	-0.0501
L10Q	0.0731
L10R	0.154
F11H	0.149
E12G	0.0395
D13K	0.0772
L10I	0.166
L10E	0.0535
L7F	0.0564
F11C	0.0397
R5A L7A	-0.044

Sample 5
Target: Histone acetyltransferase KAT6A, both winged helices, GST fusion (KAT6A, Homo sapiens, UniProt Q92794, residues 1-181)
Method: protein binding microarray
Molecule type: double-stranded DNA, one strand shown
Sample: in vitro
Tested at: not given
Notes: 8-mer, flanks averaged, mean of 2 arrays, mostly near background
Reference: not given
Reading: higher = stronger binding
Residues (chain): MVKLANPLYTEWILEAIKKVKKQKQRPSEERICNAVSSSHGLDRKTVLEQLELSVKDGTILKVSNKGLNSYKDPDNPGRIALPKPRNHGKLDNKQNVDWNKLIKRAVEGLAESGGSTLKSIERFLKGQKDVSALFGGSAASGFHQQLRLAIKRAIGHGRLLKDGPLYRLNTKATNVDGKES
Strand	E-score
AACCTAGG	-0.093
GTACCTTA	0.0376
GAGTCATC	-0.0993
GTGATGTA	-0.0211
CGTGAGAC	0.183
GACCCGCA	0.183
AAAACTTC	-0.0172
AAACACGG	0.219
CACTCGCC	0.111
AGCAACAA	-0.103
GACTCATC	-0.0834
GATGCGTA	0.0285
AGGCCGCC	0.183
GTCGTGCA	-0.157
CCTTTGCC	0.023
GAGGTTTA	0.0126
CGTCAGCA	0.0203
TCGTCCAA	0.125
ACAAGACG	0.0801
AGCCCTAT	-0.153
CGCGGGCC	0.314
CACGCCCA	-0.129
ACGTCGAT	-0.0276
GAGCAGGC	-0.00276

For quick reference, copied from above (sample 4):
Change	normalised enrichment score
P4W	0.0889
L10G	0.135
S9L	0.0919
L8S	0.0752
E12Q	-0.0501
